Experimental data collected from several papers.
Numbered parts are unrelated; each lists some results of a single study.

Block 1
Target: Interferon regulatory factor 5, full length, phosphomimetic (IRF5, Homo sapiens, UniProt Q13568-2, residues 1-514, S451D/S453D/S456D/S462D)
Technique: protein-binding microarray
Molecule type: double-stranded DNA, one strand shown
Matrix: in vitro
Concentration: 940 nM top
Notes: 60-bp whole probe
With: salmon DNA 0.4 mg/ml
Reference: random background probes
Reading: higher = stronger binding
| Oligonucleotide | fitted relative affinity [z-score] |
| --- | --- |
| GCCTAGCACGACGGTTTCGGTTGCGGGACGTGCTAGGTCTTGATTCGCTTGACGCTGCTG | 13.5 |
| GCCTAGCACTTAGGTTTCCATCTCCTTTAGTGCTAGGTCTTGATTCGCTTGACGCTGCTG | 2.04 |
| GCCTAGCACTACTTTCTACGTCTGATTTTGTGCTAGGTCTTGATTCGCTTGACGCTGCTG | 2.53 |

Block 2
Target: PABPC1L2, full length, GST fusion (mouse, UniProt A0ABA7IW68)
Technique: RNAcompete
Molecule type: RNA
Matrix: in vitro
Concentration: 20 nM
Notes: 7-mer, probes averaged, single round
Reference: mean of 7-mers
Reading: higher = stronger binding
Target sequence (chain): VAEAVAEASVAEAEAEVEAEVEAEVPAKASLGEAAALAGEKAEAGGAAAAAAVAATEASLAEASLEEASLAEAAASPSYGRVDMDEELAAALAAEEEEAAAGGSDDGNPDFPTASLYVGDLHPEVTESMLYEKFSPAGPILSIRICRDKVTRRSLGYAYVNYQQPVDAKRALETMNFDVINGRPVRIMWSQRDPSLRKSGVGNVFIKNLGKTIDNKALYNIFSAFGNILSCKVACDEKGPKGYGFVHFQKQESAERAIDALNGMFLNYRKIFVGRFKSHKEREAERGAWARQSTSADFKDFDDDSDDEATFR
| Oligonucleotide | 7-mer Z-score |
| --- | --- |
| UCUCACU | -0.233 |
| UCGAAAA | 3.42 |
| UGCGGCC | -0.267 |

Block 3
Target: Histone acetyltransferase KAT6A, winged helix 1, GST fusion (KAT6A, Homo sapiens, UniProt Q92794, residues 1-85)
Technique: protein binding microarray
Molecule type: double-stranded DNA, one strand shown
Matrix: in vitro
Concentration: not given
Notes: 8-mer, flanks averaged, mean of 2 arrays, mostly near background
Reference: not given
Reading: higher = stronger binding
Construct (chain): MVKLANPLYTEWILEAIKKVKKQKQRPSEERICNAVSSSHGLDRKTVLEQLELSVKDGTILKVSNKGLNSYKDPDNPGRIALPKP
| Oligonucleotide | E-score |
| --- | --- |
| AACGACGA | -0.145 |
| CGACTCCA | -0.0441 |
| TATTGGGA | -0.168 |

Further values, each from its own experiment
| Molecule | target | assay | system | conditions | how to read | measurement | value |
| --- | --- | --- | --- | --- | --- | --- | --- |
| PhoQ, residues 284 288 289 292 302 303 ASTSDA | PhoP, residues 12 14 15 18 19 DLLYY (Escherichia coli, UniProt P23836) | Sort-seq, item: YFP reporter | E. coli | PhoQ-PhoP variant library, with: 10 µM Mg2+ | reference: high Mg2+ state, higher = stronger signaling | fold induction | 4.39 |

For quick reference, copied from above (further values, each from its own experiment):
| Molecule | target | assay | system | conditions | how to read | measurement | value |
| --- | --- | --- | --- | --- | --- | --- | --- |
| PhoQ, residues 284 288 289 292 302 303 ASTSDA | PhoP, residues 12 14 15 18 19 DLLYY (Escherichia coli, UniProt P23836) | Sort-seq, item: YFP reporter | E. coli | PhoQ-PhoP variant library, with: 10 µM Mg2+ | reference: high Mg2+ state, higher = stronger signaling | fold induction | 4.39 |
